Measured values from different studies.
± marks the error that the study gave.

Structure (SMILES)	system	setting	Cmax
CC[C@H](C)[C@@H]1NC(=O)[C@@](C)(NC(=O)[C@H](CCCNC(=N)N)NC(=O)[C@H](CC(C)C)NC(=O)[C@@H](NC(=O)[C@H](CCC(N)=O)NC(=O)[C@H](CC(C)C)NC(C)=O)[C@@H](C)O)CCCC=CCCC[C@@](C)(C(=O)N[C@@H](CC(C)C)C(=O)N[C@@H](Cc2ccc3ccccc3c2)C(N)=O)NC(=O)[C@H](CCCNC(=N)N)NC(=O)[C@H](CCC(N)=O)NC1=O	BALB/c mouse, plasma	ip, 5 mg/kg	10500 ng/mL
O=C1CCC(N2Cc3cc(CO)c(F)cc3C2=O)C(=O)N1 (stereo not drawn)	male CD-1 mouse, plasma	oral, 10 mg/kg of parent drug	33.8 ± 17.6 ng/mL
O=C(NCCN1CCCC1)c1cc(-c2ccc(CN3CCOCC3)cc2)nc2ccc(F)cc12	NMRI mouse Plasmodium berghei-infected, blood	oral, 0.6 mg/kg, monotherapy	0.031 µM
Cc1cc(N[C@H]2CCc3ccc(Cl)cc3C2)n2nc(C(C)(F)F)nc2n1	NSG mouse, whole blood	oral, 30 mg/kg	2.83 µM
CN(C)C(=O)c1cc2cnc(Nc3ccc(-c4ccc5c(=O)cc(N6CCOCC6)oc5c4)cc3)nc2n1C1CCCC1	BALB/c mouse, plasma	oral, 20 mg/kg	1440 ± 220 ng/mL
CC1(CNc2nc(-c3cccs3)nc(Cl)c2-c2c(F)cc(N)cc2F)COC1	mouse, plasma	intraperitoneal, 2.5 mg/kg, cassette dosing	247 ng/mL
CC(C)c1nc(CN(C)C(=O)N[C@H](C(=O)N[C@@H](Cc2ccccc2)C[C@H](O)[C@H](Cc2ccccc2)NC(=O)OCc2cncs2)C(C)C)cs1	mouse, young pups, brain	15 mg/kg, together with: elacridar	~5 µM
Cc1ccc(CCC(=O)Nc2nnc(S(N)(=O)=O)s2)cc1	BALB/c mouse, male, plasma	oral, 20 mg/kg	16.9 µM
CC(C(=O)Nc1c(F)cccc1F)N1CCN(c2ccccc2)CC1 (stereo not drawn)	C57BL/6J mouse, female, brain	intraperitoneal, 10 mg/kg single dose	7720 ± 2370 ng/mL
Cl.Fc1ccc(Oc2ccc(Nc3ccc4ncc(OCC5CCNCC5)nc4c3)cc2)cc1	NOD-SCID mouse, plasma	intraperitoneal, 50 mg/kg	3.1 µM
c1csc(CNc2cc[nH]n2)c1	male CD-1 mouse, plasma	oral, 20 mg/kg, hydrochloride salt	54.6 µM
Cc1cc(NC2CCc3cc(Cl)ccc3C2)n2nc(C(C)(F)F)nc2n1 (stereo not drawn)	NSG mouse, whole blood	oral, 30 mg/kg	2.2 µM
C=CCn1c(=O)c2cnc(Nc3ccc(N4CCN(C)CC4)cc3)nc2n1-c1ccc2c(n1)[C@@](O)(CC)CC2	female NOD/SCID mouse OVCAR-3 xenograft, plasma	oral, 100 mg/kg once daily, :4	5090 ng/mL
CCOC(=O)C1=C(CN2CCC[C@@H]2C(=O)Nc2ccc(B(O)O)cc2)NC(c2nccs2)=N[C@H]1c1ccc(F)cc1Br	ICR mouse, plasma	oral, 10 mg/kg	317 ± 18.5 ng/mL
CCCc1cc(C)[nH]c(=O)c1CNC(=O)c1cc(-c2ccc(N3CCN(C(C)C)CC3)nc2)cc2c1cnn2C(C)C	Swiss albino mouse, male	intraperitoneal, 150 mg/kg	9.7 to 11.8 µM
Cc1cc(NC2Cc3cc(F)c(F)cc3C2)n2nc(C(C)(F)F)nc2n1	NSG mouse, whole blood	oral, 30 mg/kg	14.5 µM
O=C(O)C[C@H](O)C[C@H](O)/C=C/c1c(C2CC2)nc2ccccc2c1-c1ccc(F)cc1	FVB wild-type mouse, plasma	oral, 5 mg/kg	0.0316 µM
CC1(C)c2nc(-c3ccc(F)cc3)c(Nc3ccc(F)cc3)n2CCN1C(=O)CN	NMRI mouse Plasmodium berghei-infected, blood	oral, 1 mg/kg, monotherapy	0.122 µM
CNC(=O)c1cc(Oc2ccc(NC(=O)Nc3ccc(Cl)c(C(F)(F)F)c3)cc2)cc[n+]1[O-]	mouse, Oatp1b2 knockout, plasma	oral, 10 mg/kg, without rifampin, geometric mean	38 ng/mL
COc1ccc(C[C@H](NC(=O)[C@H](C)NC(=O)CN2CCOCC2)C(=O)N[C@@H](Cc2ccccc2)C(=O)C2(C)CO2)cc1 (stereo in doubt)	BALB/c mouse	intravenous, 20 mg/kg single	73.8 µM
CN(C(=O)n1cnc(-c2ccc[n+]([O-])c2)c1)C1CCCCC1	CD1 mouse, male, plasma	oral, 10 mg/kg, 1 h	3620 ± 437 ng/mL
CN1CCC[C@H](CN2c3ccccc3Sc3ccccc32)C1.Cl	fasted female ICR mouse, heart	oral, 16 mg/kg	752 ng/g
Cc1ccc2c(c1)C(=O)[C@]1(O)CCN(c3ccc4nc(C)ccc4c3)C1=N2.Cl	mouse, brain	subcutaneous, 5 mg/kg	9.1 ± 1 µM
CN[C@H](CC(C)C)C(=O)N[C@H]1C(=O)N[C@@H](CC(N)=O)C(=O)N[C@H]2C(=O)N[C@H]3C(=O)N[C@H](C(=O)N[C@H](C(=O)O)c4cc(O)cc(O)c4-c4cc3ccc4O)[C@H](O)c3ccc(c(Cl)c3)Oc3cc2cc(c3O[C@@H]2O[C@H](CO)[C@@H](O)[C@H](O)[C@H]2O[C@H]2C[C@](C)(N)[C@H](O)[C@H](C)O2)Oc2ccc(cc2Cl)[C@H]1O	C57BL/6N mouse H2, faeces, wet weight	po, 0.5 mL, 20 mg/mL solution	1.1e+07 ng/g
O=c1c2cc(Cl)c(CO)cc2[nH]c(=S)n1Cc1cccnc1	mouse	oral, 10 mg/kg	24 ng/mL
CN1CCCC1CCNS(=O)(=O)c1ccc2c(c1)CN(CC1CCCCC1)CC2 (stereo not drawn)	mouse, plasma	oral, 10 mg/kg, single dose	0.517 µM
CNC(=O)c1cc(Oc2ccc(NC(=O)N(c3ccc(Cl)c(C(F)(F)F)c3)[C@@H]3O[C@H](C(=O)O)[C@@H](O)[C@H](O)[C@H]3O)cc2)ccn1	mouse, Oatp1b2 knockout, plasma	oral, 10 mg/kg, without rifampin, geometric mean	7750 ng/mL

Excerpt of the above:
Structure (SMILES)	system	setting	Cmax
Cc1ccc2c(c1)C(=O)[C@]1(O)CCN(c3ccc4nc(C)ccc4c3)C1=N2.Cl	mouse, brain	subcutaneous, 5 mg/kg	9.1 ± 1 µM
Cc1ccc(CCC(=O)Nc2nnc(S(N)(=O)=O)s2)cc1	BALB/c mouse, male, plasma	oral, 20 mg/kg	16.9 µM
CC[C@H](C)[C@@H]1NC(=O)[C@@](C)(NC(=O)[C@H](CCCNC(=N)N)NC(=O)[C@H](CC(C)C)NC(=O)[C@@H](NC(=O)[C@H](CCC(N)=O)NC(=O)[C@H](CC(C)C)NC(C)=O)[C@@H](C)O)CCCC=CCCC[C@@](C)(C(=O)N[C@@H](CC(C)C)C(=O)N[C@@H](Cc2ccc3ccccc3c2)C(N)=O)NC(=O)[C@H](CCCNC(=N)N)NC(=O)[C@H](CCC(N)=O)NC1=O	BALB/c mouse, plasma	ip, 5 mg/kg	10500 ng/mL
COc1ccc(C[C@H](NC(=O)[C@H](C)NC(=O)CN2CCOCC2)C(=O)N[C@@H](Cc2ccccc2)C(=O)C2(C)CO2)cc1 (stereo in doubt)	BALB/c mouse	intravenous, 20 mg/kg single	73.8 µM
